Experimental data from different studies.
Numbered parts are unrelated; each lists some results of a single study. Positions count from the first letter of the parent shown.
UniProt P50750, sequence (whole entry, looked up): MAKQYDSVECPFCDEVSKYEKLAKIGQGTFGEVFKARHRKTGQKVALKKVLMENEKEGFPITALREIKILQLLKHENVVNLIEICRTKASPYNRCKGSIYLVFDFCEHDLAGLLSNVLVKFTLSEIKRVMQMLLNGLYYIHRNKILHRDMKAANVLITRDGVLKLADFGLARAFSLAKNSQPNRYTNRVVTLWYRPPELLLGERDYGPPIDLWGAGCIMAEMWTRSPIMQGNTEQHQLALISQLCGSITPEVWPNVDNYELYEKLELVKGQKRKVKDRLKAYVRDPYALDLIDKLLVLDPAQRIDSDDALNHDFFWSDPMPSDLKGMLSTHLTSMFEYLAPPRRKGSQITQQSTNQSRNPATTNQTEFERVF

Sample 1
Target: Calcium/calmodulin-dependent protein kinase type II subunit alpha (CAMK2A, Homo sapiens, UniProt Q9UQM7)
UniProt Q9UQM7, sequence (whole entry, looked up): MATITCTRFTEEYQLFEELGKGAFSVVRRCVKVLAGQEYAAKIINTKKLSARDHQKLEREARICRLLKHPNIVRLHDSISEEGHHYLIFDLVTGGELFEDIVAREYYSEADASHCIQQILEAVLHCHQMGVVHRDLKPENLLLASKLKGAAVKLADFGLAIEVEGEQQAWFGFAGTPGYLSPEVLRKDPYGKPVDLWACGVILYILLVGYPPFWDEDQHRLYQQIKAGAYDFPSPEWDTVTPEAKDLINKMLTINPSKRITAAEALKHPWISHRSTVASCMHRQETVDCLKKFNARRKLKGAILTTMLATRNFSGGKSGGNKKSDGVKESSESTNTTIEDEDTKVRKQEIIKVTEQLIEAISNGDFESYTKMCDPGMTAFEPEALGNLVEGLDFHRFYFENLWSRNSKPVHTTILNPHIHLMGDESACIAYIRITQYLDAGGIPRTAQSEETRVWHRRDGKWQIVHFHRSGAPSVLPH
Effect on: enzyme activity
Action: inhibitor
Tested at: 0.5 µM
Relative to: control
Measurement: remaining activity
N#Cc1cnc2cnc(NCc3cccnc3)cc2c1Nc1ccc(F)c(Cl)c1: 105%
O=Nc1c(-c2c(O)[nH]c3cc(Br)ccc23)[nH]c2ccccc12: 13.9%
CCCNC(=O)Nc1ccc(Oc2ncnc3cc(OC)c(OC)cc23)cc1Cl: 97.5%

Sample 2
Target: Interferon regulatory factor 5, full length, phosphomimetic (IRF5, Homo sapiens, UniProt Q13568-2, residues 1-514, K96S/S451D/S453D/S456D/S462D)
Method: protein-binding microarray
Molecule type: double-stranded DNA, one strand shown
Sample: in vitro
Tested at: 250 nM
Notes: 60-bp whole probe
Together with: salmon DNA 0.4 mg/ml
Relative to: random background probes
Reading: higher = stronger binding
Measurement: log fluorescence
Shared flanks, not repeated: GCCTAGCAC … GTCTTGATTCGCTTGACGCTGCTG
CCAGTTCTGGGAAATATTTACGTGCTA: 0.101 z-score
GACGATCTCAGTTTCGAAACGTGCTAG: 6.15 z-score
GACGGCCTGGGACTGGGGACGTGCTAG: -0.726 z-score
GACGATTTCGGGGTTCGAGACGTGCTA: 1.99 z-score
TTAGGTCTCCCTTTCCTTTAGTGCTAG: 0.263 z-score
CCACTCTTGCTTTTTAGATCGTGCTAG: 0.273 z-score
GATGATATCGGGACTGGAGACGTGCTA: 1.08 z-score
AGTTAATCCCTCTCAGGCATGTGCTAG: 0.0764 z-score

Sample 3
Target: CREB5, bZIP domain (human)
Method: DHFR protein complementation
Sample: yeast
Notes: single substitutions, most at no-binding floor
Relative to: wild-type JUN-FOS pair
Reading: higher = stronger binding
Measurement: binding fitness
Parent: JUN, bZIP domain (human); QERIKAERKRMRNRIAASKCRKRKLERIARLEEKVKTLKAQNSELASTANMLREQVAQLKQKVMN; partner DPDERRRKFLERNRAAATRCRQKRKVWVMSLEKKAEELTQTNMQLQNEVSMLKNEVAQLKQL
A49Y: -0.927 natural log
A57E: -0.212 natural log
A57P: -1.34 natural log
L52R: -1.3 natural log
L45D: -1.27 natural log
L59D: -1.29 natural log
L31E: -1.18 natural log
A29I: -0.273 natural log

Other studies, line by line
O=C(NS(=O)(=O)c1ccc(NCC2CCOCC2)c([N+](=O)[O-])c1)c1ccc(N2CCN(Cc3ccc(C(F)(F)F)cc3-c3ccc(Cl)cc3)CC2)cc1Oc1cnc2[nH]ccc2c1 — remaining binding (Cyclin-dependent kinase 9 (CDK9, Homo sapiens, UniProt P50750); cell-free assay, competition with immobilised ligand; 1 µM): 100%

Excerpt of the above (sample 1):
CCCNC(=O)Nc1ccc(Oc2ncnc3cc(OC)c(OC)cc23)cc1Cl: 97.5%
